Assay results from different studies.
Lines come from different studies, so protocols differ. ± gives the spread as reported.

Compound	target or system	test	test system	conditions	scale	measurement	result
CC(C)(C)c1ccc(O)c(CN(Cc2cc(C(C)(C)C)ccc2O)C2CCC(NC(N)=O)CC2)c1 (stereo not shown)			mouse plasma	5 ng/mL, time not given, freeze-thaw, 3 cycles, -20 °C		recovery	99.7 ± 2.59%
CC[C@H](C)[C@H](NC(C)=O)C(=O)N[C@H]1CSSC[C@@H](C(=O)N[C@H](C(N)=O)[C@@H](C)O)NC(=O)[C@H](CCCNC(=N)N)NC(=O)[C@H](Cc2c[nH]cn2)NC(=O)[C@H](Cc2cccc3ccccc23)NC(=O)CNC(=O)[C@H](Cc2c[nH]c3ccccc23)NC(=O)[C@H](CC(=O)O)NC(=O)[C@H](CCC(N)=O)NC(=O)[C@H](Cc2cn(C)c3ccccc23)NC(=O)[C@H](C(C)C)NC1=O		isocratic RP-HPLC, C18	32% acetonitrile, phosphate pH 7.4, 1% TFA	25 °C		retention factor	10.132 ± 0.005
CCN1/C(=C/C(C)=O)Sc2ccc(F)cc21			cynomolgus monkey	oral, 100 mg/kg, 6 h post-dose	baseline: pre-dose	QTc interval change	100 ± 3.1%
O=C(O)CCC(=O)O.[2H]C([2H])([2H])Oc1cc(C)c2[nH]ccc2c1CN1CC[C@@H](C2CC2)C[C@H]1c1ccc(C(=O)O)cc1			healthy Chinese subjects	400 mg, single ascending dose		TEAE decreased neutrophil	0%
CCCOc1ccc([C@H]2CNC(=O)N2c2ccc3[nH]cnc3c2)cc1			human volunteers fasted, plasma	oral capsule, 200 mg single dose, crossover, geometric mean		AUC(0-12h)	2020 ng·h/mL
O=[N+]([O-])c1ccc(-c2ccc(O)cc2)c2cccnc12			ICR mice male, plasma	intravenous, 1 mg/kg		clearance	122 mL/min/kg
CNCc1ccc(-c2[nH]c3cc(F)cc4c3c2CCNC4=O)cc1			human patients	oral, 480 mg twice daily, all grades		neutropenia incidence	33.3%
C=CC[C@@H]1/C=C(\C)C[C@H](C)C[C@H](OC)[C@H]2O[C@@](O)(C(=O)C(=O)N3CCCC[C@H]3C(=O)O[C@H](/C(C)=C/[C@@H]3CC[C@@H](O)[C@H](OC)C3)[C@H](C)[C@@H](O)CC1=O)[C@H](C)C[C@@H]2OC			Wistar Kyoto rats, male	ip, 0.5 mg/kg/day, day 18	baseline: vehicle	fractional magnesium excretion	~1.5 fold
Cc1ccc([C@@H]2O[C@H](CO)[C@@H](O)[C@H](O)[C@H]2O)cc1Cc1ccc(-c2ccc(F)cc2)s1			Japanese type 2 diabetes patients	100 mg, day 4, 24 h urine collection	baseline: baseline	urinary chloride excretion change	40 mEq
C=CC(=O)Nc1cc(Nc2nccc(-c3cn(C)c4ccccc34)n2)c(OC)cc1N(C)CCN(C)C		storage stability	human plasma	30 d, -80 °C, LQC level		recovery	95.6%
CCn1c(=O)c(-c2cc(NC(=O)Nc3ccccc3)c(F)cc2Br)cc2cnc(NC)cc21		item: gastrointestinal disorders	human, severe hepatic impairment	oral, 50 mg single dose		participants with drug-related TEAE	0%
CCCc1ccc(-c2ccc(-c3cc(F)c(F)c(F)c3)c(F)c2)cc1			rat, fetus	5000 ng/mL in perfusate, high dose, mixture of 21 LCMs		fetal accumulation	0.53 ± 0.458 ng/g
Cc1ccc(Sc2ccccc2N2CCNCC2)c(C)c1		item: blood uric acid increased	healthy adult men	oral, 10 mg daily, 12 days		participants with TEAE	0%
CCc1cc(C(=O)NC)c2nccc(N3CCc4c(cc(Cn5ccnc5)cc4-c4cn(C)nc4C(F)(F)F)C3=O)c2c1			Sprague Dawley rat	oral, 100 mg/kg twice daily, day 4, 7-day toxicology study		body weight	232 ± 4.9 g
COc1cc2c(c(O)c1OC)C(=O)c1c(cc(C)c(O)c1OC)C2=O	HK-2 co-cultured with HepaRG	MTT		133.33 µM, 48 h	baseline: untreated control	cell viability	34.1 ± 1.43%
CCO[C@H]1CCN(Cc2c(OC)cc(C)c3[nH]ccc23)[C@H](c2ccc(C(=O)O)cc2)C1			human mild hepatic impairment, plasma	oral, 200 mg single dose, median		total Cmax	3520 ng/mL
COc1nnc2ccc(N3CCC(c4ccc(OCCN5CCN(C)C(=O)[C@H]5C)cc4)CC3)nn12			human, plasma	oral, 2 mg once daily, multiple dose, monotherapy		terminal half-life	8.75 h
COc1c(O[C@@H]2O[C@H](CO)[C@@H](O)[C@H](O)[C@H]2O)c(C)cc2c1C(=O)c1c(O)cccc1C2=O	HK-2 co-cultured with HepaRG	MTT		133.33 µM, 48 h	baseline: untreated control	cell viability	59.9 ± 1.33%
O=C1NCCc2nc(OCc3cccc(F)c3)ccc21		item: loss of Grasping	Sprague-Dawley rat male	oral, 100 mg/kg, 0 min	baseline: baseline, direction not given	Irwin test score	0.2

For quick reference, copied from above:
Compound	target or system	test	test system	conditions	scale	measurement	result
CCCc1ccc(-c2ccc(-c3cc(F)c(F)c(F)c3)c(F)c2)cc1			rat, fetus	5000 ng/mL in perfusate, high dose, mixture of 21 LCMs		fetal accumulation	0.53 ± 0.458 ng/g
Cc1ccc(Sc2ccccc2N2CCNCC2)c(C)c1		item: blood uric acid increased	healthy adult men	oral, 10 mg daily, 12 days		participants with TEAE	0%
CCc1cc(C(=O)NC)c2nccc(N3CCc4c(cc(Cn5ccnc5)cc4-c4cn(C)nc4C(F)(F)F)C3=O)c2c1			Sprague Dawley rat	oral, 100 mg/kg twice daily, day 4, 7-day toxicology study		body weight	232 ± 4.9 g
